Measured values collected from several papers.
A part holds a random share of what one study measured.

Sample 1
SMILES: COc1cc(C(=O)N2CCC(N3CCN(C)CC3)CC2)ccc1Nc1ncc2c(n1)N(C)c1ccccc1C(=O)N2C
| target | test | test system | conditions | inhibition [%] |
| --- | --- | --- | --- | --- |
| MAP3K1 (human) | probe labelling, KiNativ ADP probe | human PBMC lysate | concentration not given, LYS2 labelled site | -27.8 |
| TLK1 and TLK2 (human) | probe labelling, KiNativ, measured: Lys2 site peptide | PBMC lysate (human) | 1 µM, with: ATP acyl-phosphate probe | 2.4 |
| SYK human | KiNativ profiling | human PBMC | 0.1 µM, DFG motif site, with: ATP acyl phosphate probe | 3.2 |

Sample 2
Target: Beta-1 adrenergic receptor (ADRB1, Homo sapiens, UniProt P08588)
Chain of UniProt P08588 (whole entry, looked up): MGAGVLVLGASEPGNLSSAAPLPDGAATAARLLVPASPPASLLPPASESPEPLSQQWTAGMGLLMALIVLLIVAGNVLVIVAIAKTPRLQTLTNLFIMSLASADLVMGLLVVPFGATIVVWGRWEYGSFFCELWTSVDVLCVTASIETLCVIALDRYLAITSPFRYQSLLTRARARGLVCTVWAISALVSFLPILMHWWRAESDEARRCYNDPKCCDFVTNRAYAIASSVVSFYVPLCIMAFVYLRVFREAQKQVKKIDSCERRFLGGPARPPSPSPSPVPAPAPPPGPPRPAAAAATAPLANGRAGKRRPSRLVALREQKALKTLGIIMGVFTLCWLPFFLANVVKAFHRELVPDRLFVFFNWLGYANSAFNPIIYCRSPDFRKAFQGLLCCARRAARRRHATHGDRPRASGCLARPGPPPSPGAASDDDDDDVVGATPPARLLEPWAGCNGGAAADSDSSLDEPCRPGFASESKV
Action: antagonist
| SMILES | IC50 [µM] |
| --- | --- |
| CCN1C(=O)COC[C@@H]1[C@H](O)c1ccc(NC(=O)CCc2ccccc2)cc1 | ≥ 100 |
| OC(COc1ccccc1CNCC1CCOCC1)CN1CCSCC1 (stereo not drawn) | ≥ 100 |
| Cc1noc2c(N(C)C)cc(-c3ccsc3)nc12 | ≥ 100 |

Single results of other studies
| Compound | tested on | test | conditions | scale | endpoint | value |
| --- | --- | --- | --- | --- | --- | --- |
| Nc1c2c(nc3c1CCC3)CCCC2 | Sarcocystis neurona | parasite growth | 10 µM, 96 h, first screen | – | inhibition | 13.2% |
| Cn1cncc1[C@](O)(COc1ccc(C#N)cc1-c1ccc(OC(F)(F)F)cc1)c1ccc(C#N)cc1 | normal adjacent epithelium patient-derived organoids | CellTiter-Glo | 1 µM, mean of five organoid lines | baseline: DMSO | viability | 42.4% |
| CC(=O)[C@H]1CC[C@H]2[C@@H]3C[C@H](C)C4=CC(=O)CC[C@]4(C)[C@H]3[C@@H](O)C[C@]12C | Sarcocystis neurona | parasite growth | 10 µM, 96 h, first screen | – | inhibition | -22.4% |

Excerpt of the above (sample 1):
| target | test | test system | conditions | inhibition [%] |
| --- | --- | --- | --- | --- |
| SYK human | KiNativ profiling | human PBMC | 0.1 µM, DFG motif site, with: ATP acyl phosphate probe | 3.2 |
